Assay results of several laboratories.
Organism: Staphylococcus aureus

With `CC[C@H](C)[C@H](NC(=O)[C@H](CCCNC(=N)N)NC(=O)[C@H](CCCCN)NC(=O)[C@H](CC(C)C)NC(=O)[C@H](CCCCN)NC(=O)[C@H](CCCCN)NC(=O)CNC(=O)[C@H](Cc1ccccc1)NC(=O)[C@H](CC(N)=O)NC(=O)[C@H](CCCNC(=N)N)NC(=O)[C@@H](N)CC(C)C)C(=O)NCC(=O)N[C@@H](CCCCN)C(=O)N[C@@H](Cc1ccc(O)cc1)C(=O)N[C@H](C(=O)N[C@@H](CCCNC(=N)N)C(=O)N[C@@H](CC(N)=O)C(=O)N[C@H](C(=O)N[C@@H](C)C(=O)N[C@@H](CCC(N)=O)C(=O)N[C@@H](CCCCN)C(=O)N[C@H](C(=O)N[C@H](C(=O)N[C@H](C(=O)N[C@H](C(=O)N[C@@H](C)C(=O)N[C@@H](CCC(N)=O)C(=O)NCC(=O)N[C@@H](C)C(=O)N[C@@H](C)C(=O)NCC(=O)N[C@H](C(=O)N[C@@H](C)C(=O)N[C@@H](CCCCN)C(=O)O)C(C)C)C(C)C)[C@@H](C)O)C(C)C)C(C)C)C(C)C)[C@@H](C)O` the MIC was 76.6 µM (broth microdilution; ATCC 29213, Mueller-Hinton broth; 16 to 20 h, 37 °C).
With `CC[C@H](C)[C@H](NC(=O)[C@H](Cc1c[nH]c2ccccc12)NC(=O)[C@@H](NC(=O)[C@H](Cc1ccccc1)NC(=O)[C@@H]1CCCN1C(=O)[C@@H](NC(=O)[C@H](C)N)[C@@H](C)CC)[C@@H](C)CC)C(=O)N[C@@H](Cc1ccccc1)C(=O)N[C@@H](CCCNC(=N)N)C(=O)N[C@@H](CC(C)C)C(=O)N[C@@H](CC(C)C)C(=O)N[C@@H](CCCNC(=N)N)C(=O)N[C@@H](CCCCN)C(=O)NCC(N)=O` the MIC was 0.47 µM (broth microdilution; ATCC 35556; 18 h, 37 °C).
For `CC[C@H](C)[C@H](NC(=O)[C@H](CC(C)C)NC(=O)[C@H](CCCCN)NC(=O)[C@@H](NC(=O)[C@H](C)NC(=O)[C@H](CCC(=O)O)NC(=O)[C@H](Cc1c[nH]cn1)NC(=O)[C@@H](NC(=O)[C@H](CCCCN)NC(=O)[C@H](CCC(N)=O)NC(=O)[C@H](Cc1ccccc1)NC(=O)[C@@H](NC(=O)[C@H](CCCCN)NC(=O)[C@@H](N)CCCCN)C(C)C)[C@@H](C)CC)[C@@H](C)CC)C(N)=O`, the MIC was 32 µM (broth microdilution; MW2 resistant; 18 h, 37 °C).
With `CC[C@H](C)[C@H](NC(=O)[C@H](CCCCN)NC(=O)[C@H](CCCCN)NC(=O)CNC(=O)[C@H](CCCCN)NC(=O)[C@H](CC(C)C)NC(=O)[C@H](CCCCN)NC(=O)[C@H](CCCNC(=N)N)NC(=O)[C@@H](NC(=O)[C@H](CC(C)C)NC(=O)[C@H](CCCNC(=N)N)NC(=O)[C@@H](N)CCCNC(=N)N)[C@@H](C)CC)C(=O)N[C@@H](Cc1ccc(O)cc1)C(=O)N[C@@H](CC(C)C)C(=O)N[C@@H](Cc1ccc(O)cc1)C(=O)N[C@@H](Cc1ccccc1)C(=O)N[C@@H](CCCCN)C(=O)N[C@@H](CC(C)C)C(=O)N[C@@H](CCC(N)=O)C(=O)N[C@@H](CC(C)C)C(=O)N[C@@H](CC(C)C)C(=O)N[C@@H](CCCCN)C(=O)N[C@@H](CCCCN)C(N)=O` the MIC was 8 µM (broth microdilution; KCTC 1621, Mueller-Hinton broth; no added salt).
The MIC of `CC[C@H](C)[C@H](NC(=O)[C@H](CCCNC(=N)N)NC(=O)[C@H](CCCNC(=N)N)NC(=O)[C@H](CCCNC(=N)N)NC(=O)[C@H](CCCNC(=N)N)NC(=O)[C@H](CC(C)C)NC(=O)[C@H](CCCNC(=N)N)NC(=O)[C@H](CO)NC(=O)[C@@H](N)CO)C(=O)N[C@H](C(=O)N[C@@H](CC(C)C)C(=O)N[C@@H](CCCNC(=N)N)C(=O)N[C@@H](CCCNC(=N)N)C(=O)N[C@@H](CCCNC(=N)N)C(=O)N[C@@H](CCCNC(=N)N)C(=O)N[C@@H](Cc1ccccc1)C(=O)N[C@@H](CO)C(=O)N[C@@H](C)C(=O)N[C@@H](Cc1ccc(O)cc1)C(N)=O)C(C)C` is reported as 32 µM (broth microdilution; ATCC 29213; highest value reported).
`c1ccc(CCOC2CCCc3c2[nH]c2ccccc32)cc1` (stereo not drawn) has an MIC of over 16 µg/mL (broth microdilution; SA113).
For `CN[C@H](CC(C)C)C(=O)N[C@H]1C(=O)N[C@@H](CC(N)=O)C(=O)N[C@H]2C(=O)N[C@H]3C(=O)N[C@H](C(=O)N[C@H](C(=O)O)c4cc(O)cc(O)c4-c4cc3ccc4O)[C@H](O)c3ccc(c(Cl)c3)Oc3cc2cc(c3O[C@@H]2O[C@H](CO)[C@@H](O)[C@H](O)[C@H]2O[C@H]2C[C@](C)(N)[C@H](O)[C@H](C)O2)Oc2ccc(cc2Cl)[C@H]1O`, the MIC was 4 µg/mL (broth microdilution; VISA LIM-2, tryptic soy broth; 20 to 24 h, 37 °C, 0.002% polysorbate 80).
`CC[C@H](C)[C@H](N)C(=O)N[C@@H](CC(C)C)C(=O)NCC(=O)N[C@H](CCCNC(=N)N)C(=O)N[C@H](C(=O)N[C@@H](Cc1c[nH]c2ccccc12)C(=O)N[C@@H](CCCCN)C(=O)NCC(=O)N[C@H](C(=O)N[C@@H](CCCCN)C(=O)N[C@@H](CC(=O)O)C(=O)N[C@H](C(=O)N[C@@H](CC(C)C)C(N)=O)[C@@H](C)CC)[C@@H](C)CC)[C@@H](C)CC` has an MIC of 12.5 µM (broth microdilution; ATCC 25923; added: KCl 4.5 mM).
`Cn1c(=O)ccc2ccc(F)c(CCNC[C@H]3CN(c4cnc5c(n4)NC(=O)CO5)C(=O)O3)c21` gave an MIC of 0.008 µg/mL (ATCC 29213).
`CC[C@H](C)[C@H](NC(=O)[C@H](CC(C)C)NC(=O)[C@@H](NC(=O)[C@H](Cc1ccc(O)cc1)NC(=O)[C@H](CO)NC(=O)CNC(=O)[C@H](CCCNC(=N)N)NC(=O)[C@H](CCCNC(=N)N)NC(=O)[C@H](CCCNC(=N)N)NC(=O)[C@@H]1CCCN1C(=O)[C@H](CCCCN)NC(=O)[C@H](Cc1c[nH]c2ccccc12)NC(=O)[C@@H](NC(=O)[C@H](Cc1c[nH]c2ccccc12)NC(=O)[C@H](CCCCN)NC(=O)[C@H](CCCNC(=N)N)NC(=O)[C@H](CCCNC(=N)N)NC(=O)[C@@H]1CCCN1C(=O)[C@H](CO)NC(=O)[C@H](CCCNC(=N)N)NC(=O)[C@H](CO)NC(=O)[C@H](CCCNC(=N)N)NC(=O)[C@@H](N)CCCNC(=N)N)[C@@H](C)O)[C@@H](C)O)C(=O)N[C@@H](CO)C(=O)N[C@@H](CCC(N)=O)C(=O)NCC(=O)NCC(=O)N[C@@H](CC(N)=O)C(=O)O` has an MIC of 21.8 µM (broth microdilution; MRSA CMCC 43300).
The MIC of `N=C(N)NCCC[C@H](NC(=O)[C@@H](N)CCCNC(=N)N)C(=O)N[C@@H](Cc1c[nH]c2ccccc12)C(=O)N[C@@H](Cc1c[nH]c2ccccc12)C(=O)N[C@@H](CCC(N)=O)C(=O)N[C@@H](Cc1ccccc1)C(=O)N[C@@H](CCC(N)=O)C(=O)N[C@@H](Cc1ccccc1)C(=O)N[C@@H](CCCCN)C(N)=O` is reported as 77 µM (broth microdilution, optical density; ATCC 25923).
`CC(C)C[C@@H](NC(=O)CNC(=O)[C@@H](CCCCN)NC(=O)[C@@H](CC(C)C)NC(=O)[C@@H](CCCCN)NC(=O)[C@@H](CCCNC(=N)N)NC(=O)[C@@H](CC(C)C)NC(=O)[C@@H](CC(C)C)NC(=O)[C@@H](CCCNC(=N)N)NC(=O)[C@H](N)CCCNC(=N)N)C(=O)N[C@H](CCCCN)C(=O)N[C@H](CCCCN)C(=O)N[C@H](Cc1ccc(O)cc1)C(=O)N[C@H](CC(C)C)C(=O)N[C@H](Cc1ccc(O)cc1)C(=O)N[C@H](Cc1ccccc1)C(=O)N[C@H](CCCCN)C(=O)N[C@H](CC(C)C)C(=O)N[C@H](CCC(N)=O)C(=O)N[C@H](CC(C)C)C(=O)N[C@H](CC(C)C)C(=O)N[C@H](CCCCN)C(=O)N[C@H](CCCCN)C(N)=O` has an MIC of 4 µM (CCARM 3090, methicillin-resistant, Mueller-Hinton broth; 24 h).

Some of these lines once more:
With `CC[C@H](C)[C@H](NC(=O)[C@H](CCCCN)NC(=O)[C@H](CCCCN)NC(=O)CNC(=O)[C@H](CCCCN)NC(=O)[C@H](CC(C)C)NC(=O)[C@H](CCCCN)NC(=O)[C@H](CCCNC(=N)N)NC(=O)[C@@H](NC(=O)[C@H](CC(C)C)NC(=O)[C@H](CCCNC(=N)N)NC(=O)[C@@H](N)CCCNC(=N)N)[C@@H](C)CC)C(=O)N[C@@H](Cc1ccc(O)cc1)C(=O)N[C@@H](CC(C)C)C(=O)N[C@@H](Cc1ccc(O)cc1)C(=O)N[C@@H](Cc1ccccc1)C(=O)N[C@@H](CCCCN)C(=O)N[C@@H](CC(C)C)C(=O)N[C@@H](CCC(N)=O)C(=O)N[C@@H](CC(C)C)C(=O)N[C@@H](CC(C)C)C(=O)N[C@@H](CCCCN)C(=O)N[C@@H](CCCCN)C(N)=O` the MIC was 8 µM (broth microdilution; KCTC 1621, Mueller-Hinton broth; no added salt).
